Assay results from different studies.
Protocols differ between the studies behind these lines. In brackets after ≈: the same amount, converted by molar mass.
Sequence of UniProt Q96RR4 (whole entry, looked up): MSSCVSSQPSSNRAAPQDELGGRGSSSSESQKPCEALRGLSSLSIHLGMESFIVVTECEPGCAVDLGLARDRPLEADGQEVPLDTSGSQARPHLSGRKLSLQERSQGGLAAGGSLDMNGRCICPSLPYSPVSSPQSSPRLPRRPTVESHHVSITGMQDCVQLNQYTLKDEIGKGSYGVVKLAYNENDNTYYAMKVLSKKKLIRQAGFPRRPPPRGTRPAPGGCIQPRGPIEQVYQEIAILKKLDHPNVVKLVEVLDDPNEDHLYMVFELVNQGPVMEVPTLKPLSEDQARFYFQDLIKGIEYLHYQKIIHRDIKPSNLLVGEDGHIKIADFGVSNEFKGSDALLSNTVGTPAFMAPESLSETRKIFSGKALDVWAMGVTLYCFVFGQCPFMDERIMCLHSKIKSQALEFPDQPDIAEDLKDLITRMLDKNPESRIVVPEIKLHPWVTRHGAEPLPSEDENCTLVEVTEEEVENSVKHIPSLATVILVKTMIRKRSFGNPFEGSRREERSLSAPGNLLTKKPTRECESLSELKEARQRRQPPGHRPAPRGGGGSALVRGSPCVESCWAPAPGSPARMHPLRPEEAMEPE

Cc1ccc(-c2cc(C(F)(F)F)c3c(N)c(C(=O)Nc4cccc(C)c4C)sc3n2)cc1
IC50 (Mycobacterium tuberculosis; microbial growth; H37RV): > 100 µM

CC1(C)S[C@@H]2[C@H](NC(=O)[C@H](N)c3ccc(O)cc3)C(=O)N2[C@H]1C(=O)O
MIC (Burkholderia cenocepacia; microbial growth; J2315): > 256 µg/mL

CCCCCCC/C=C/C(=O)N1C(=O)/C(=C(/C)O)C(=O)C1CO (stereo not drawn)
MIC (Burkholderia cepacia; microbial growth; ATCC25416): > 200 µg/mL

C[C@@H](O)[C@H]1C(=O)N2C(C(=O)O)=C(S[C@@H]3CN[C@H](C(=O)N(C)C)C3)[C@H](C)[C@H]12
MIC (Burkholderia cenocepacia; microbial growth; J2315): 16 µg/mL

CCOC(=O)C1=C[C@@H](OC(CC)CC)[C@H](NC(C)=O)[C@@H](N)C1
inhibition (Human coronavirus 229E; cytopathic effect; A549; 6.25 µM): 34.1%

COc1ccc(-c2cc(C(F)(F)F)c3c(N)c(C(=O)N4CC(C)OC(C)C4)sc3n2)cc1 (stereo not drawn)
IC50 (Mycobacterium tuberculosis; microbial growth; H37RV): > 50 µM

Cc1nn(C)cc1-c1nc2c(N3CCN(Cc4ccc(Cl)cc4)CC3)c(Cl)cnc2[nH]1
remaining binding (Tyrosine-protein kinase ABL1, phosphorylated (ABL1, Homo sapiens, UniProt P00519, H396P); binding, competition with immobilised ligand; 1 µM): 99%

COC(=O)OCOc1c2n(ccc1=O)N([C@@H]1c3ccccc3SCc3c1ccc(F)c3F)[C@@H]1COCCN1C2=O
EC50 (Influenza A virus; viral replication, inhibitor; H3N2): 0.00323 µM

NC(=O)c1ccc(Cn2c(=S)[nH]c3ccc(Cl)cc3c2=O)cn1
MIC90 (Mycobacterium tuberculosis; microbial growth; H37RV): > 100 µM

[2H]c1c([2H])c([C@]2([2H])CCCN2C(=O)C(C)(C)Oc2ccc3cn[nH]c3c2)c([2H])c([2H])c1C([2H])([2H])[2H]
remaining binding (Calcium/calmodulin-dependent protein kinase kinase 2 (CAMKK2, Homo sapiens, UniProt Q96RR4); binding, competition with immobilised ligand; 1 µM): 70%

CC(=O)OCc1cc2[nH]c(=S)n(Cc3cccnc3)c(=O)c2cc1Cl
MIC90 (Mycobacterium tuberculosis; microbial growth; H37RV): 3.25 µM

Nc1c(C(=O)N2CCOCC2)sc2nc(-c3cccnc3)ccc12
IC50 (Mycobacterium tuberculosis; microbial growth; H37RV): > 100 µM

C[C@H]1COc2c(N3CCN(C)CC3)c(F)cc3c(=O)c(C(=O)O)cn1c23
MIC (Burkholderia cenocepacia; microbial growth; J2315): 2 µg/mL

Nc1ncnc2c([C@@H]3N[C@H](CO)[C@@H](O)[C@H]3O)c[nH]c12
inhibition (unidentified influenza virus; viral replication, inhibitor; MDCK; 3 µM): 0.3%

Nc1ncc(-c2nc(N3CCOCC3)nc(N3CCOCC3)n2)c(C(F)F)n1
remaining binding (Epidermal growth factor receptor (EGFR, Homo sapiens, UniProt P00533, L858R/T790M); cell-free assay, competition with immobilised ligand; 10 µM): 74%

CC(c1cncnc1)n1c(=S)[nH]c2ccc(Cl)cc2c1=O (stereo not drawn)
MIC90 (Mycobacterium tuberculosis; microbial growth; H37RV): ≥ 100 µM

CCCCCCC/C=C/C(=O)N1C(=O)/C(=C(\O)C2CCNCC2)C(=O)C1CC(C)C (stereo not drawn)
MIC (Burkholderia cepacia; microbial growth; ATCC25416): 50 µg/mL

CC(C)C(=O)OCc1cc2[nH]c(=S)n(Cc3cccnc3)c(=O)c2cc1Cl
MIC90 (Mycobacterium tuberculosis; microbial growth; H37RV): 2 µM (≈ 0.808 µg/mL)

COC(=O)c1cc(-c2cccc(NC(=S)Nc3ccc(OC)cc3)c2)on1
MIC (Mycolicibacterium fortuitum; microbial growth, broth dilution; ATCC6841; 48 h): > 64 µg/mL

OC(Cn1cncn1)(Cn1cncn1)c1ccc(F)cc1F
MIC (Lodderomyces parapsilosis; microbial growth, broth dilution; ATCC22019): 2 µg/mL

Nc1c(C(=O)Nc2ccccc2F)sc2nc(-c3ccccc3)cc(C(F)(F)F)c12
IC50 (Mycobacterium tuberculosis; microbial growth; H37RV): > 100 µM

CC(=O)OCc1cc2[nH]c(=O)n(Cc3cccnc3)c(=O)c2cc1Cl
MIC90 (Mycobacterium tuberculosis; microbial growth; H37RV): > 100 µM

O=C(c1cc2ccc(-c3ccccc3)nc2s1)N1CCCC1
IC50 (Mycobacterium tuberculosis; microbial growth; H37RV): > 100 µM

COC(=O)c1cc(-c2cccc(NC(=O)Nc3ccccc3OC)c2)on1
MIC (Pseudomonas aeruginosa; microbial growth, broth dilution; ATCC27853): > 64 µg/mL

COc1c(N2C[C@@H]3CCCN[C@@H]3C2)c(F)cc2c(=O)c(C(=O)O)cn(C3CC3)c12
MIC (Mycolicibacterium fortuitum; microbial growth; ATCC6841): 0.03 µM

C/C(O)=C1\C(=O)C(CC(C)C)N(C(=O)C=Cc2ccccc2)C1=O (stereo not drawn)
MIC (Burkholderia cepacia; microbial growth; ATCC25416): > 200 µg/mL

Oc1cc(Cl)ccc1Oc1ccc(Cl)cc1Cl
MIC (Mycobacterium tuberculosis; microbial growth; H37RV): 43 µM

CCCCCCC/C=C/C(=O)N1CC(=O)/C(=C(\C)O)C1=O
MIC (Burkholderia cepacia; microbial growth; ATCC25416): 200 µg/mL

O=c1cc(OCCCOc2ccnc(SCc3ccc(F)cc3)n2)c2cc(F)ccc2o1
inhibition (Human coronavirus 229E; cytopathic effect; A549; 12.5 µM): 41.1%

COc1cccc(-c2cc(C(F)(F)F)c3c(N)c(C(=O)Nc4cccc(C)c4C)sc3n2)c1
IC50 (Mycobacterium tuberculosis; microbial growth; H37RV): > 100 µM

N#Cc1cncc(Cn2c(=S)[nH]c3ccc(Cl)cc3c2=O)c1
MIC90 (Mycobacterium tuberculosis; microbial growth; H37RV): > 100 µM

COc1ccc(OS(=O)(=O)NC(=O)CCCCc2ccccc2)cc1
MIC (Bacillus subtilis; microbial growth; ATCC23857): 200 µg/mL

Nc1c(C(=O)N2CCCC2)sc2nc(-c3ccc4c(c3)OCO4)cc(C(F)(F)F)c12
IC50 (Mycobacterium tuberculosis; microbial growth; H37RV): > 100 µM

Cc1cccc(CSc2nccc(OCCOc3cc(=O)oc4ccccc34)n2)c1
inhibition (Human coronavirus 229E; cytopathic effect; A549; 1.56 µM): 13.4%

Nc1c(C(=O)N2CCOCC2)sc2nc(-c3ccoc3)ccc12
IC50 (Mycobacterium tuberculosis; microbial growth; H37RV): 60 µM

CCCCCCC/C=C/C(=O)N1C(=O)/C(=C(/C)O)C(=O)C1CCC(=O)O (stereo not drawn)
MIC (Burkholderia cepacia; microbial growth; ATCC25416): > 200 µg/mL

A few entries again:
Oc1cc(Cl)ccc1Oc1ccc(Cl)cc1Cl
MIC (Mycobacterium tuberculosis; microbial growth; H37RV): 43 µM

Nc1c(C(=O)Nc2ccccc2F)sc2nc(-c3ccccc3)cc(C(F)(F)F)c12
IC50 (Mycobacterium tuberculosis; microbial growth; H37RV): > 100 µM

CCCCCCC/C=C/C(=O)N1C(=O)/C(=C(/C)O)C(=O)C1CCC(=O)O (stereo not drawn)
MIC (Burkholderia cepacia; microbial growth; ATCC25416): > 200 µg/mL
